# Assay results of several laboratories.
# Protocols differ between the studies behind these lines. ± marks the error that the study gave.
SMILES,assay,test system,conditions,how to read,endpoint,result
N#Cc1cnc2cc(OCC3CCNCC3)c(F)cc2c1Nc1cc(F)c(OCc2cccc(Cl)n2)cc1Cl,,"C57BL/6J mice, partial hepatectomy","5, 15 and 50 mg/kg twice daily, 72 h after hepatectomy, 70% partial hepatectomy",relative to: vehicle,liver to body weight ratio,increased
CC(C)C[C@@H]1NC(=O)[C@H](C(C)C)NC(=O)[C@H](CC(N)=O)NC(=O)[C@H](CO)NC(=O)[C@H](CO)NC(=O)[C@H](CC(=O)O)NC(=O)[C@H](CC(=O)O)NC(=O)[C@H](Cc2ccccc2)NC(=O)[C@H](Cc2ccc(O)cc2)NC(=O)[C@@H](N)CSSC[C@@H](C(=O)N[C@@H](CCCCN)C(=O)N[C@@H](CCCCN)C(=O)N[C@@H](Cc2ccc(O)cc2)C(=O)N[C@@H](CCCNC(=N)N)C(=O)N[C@@H](CO)C(=O)O)NC1=O,,"CD-1 mouse, nephrotoxic serum nephritis, blood","dose not given, dosed from week 6",,blood urea nitrogen,decreased
CCCCCCCCCCCCCCCC(=O)NCCCC[C@H](N)C(=O)N[C@@H](CC(=O)O)C(=O)N[C@H](C(=O)N[C@@H](Cc1c[nH]cn1)C(=O)N[C@@H](Cc1ccccc1)C(=O)N[C@@H](CCCNC(=N)N)C(=O)N[C@H](C(=O)N[C@@H](Cc1ccccc1)C(=O)N[C@@H](CCCNC(=N)N)C(=O)N[C@@H](CO)C(=O)N[C@@H](Cc1c[nH]cn1)C(=O)N[C@@H](CO)C(=O)N[C@@H](CC(=O)O)C(=O)N[C@@H](Cc1ccc(O)cc1)C(=O)N[C@@H](CCCNC(=N)N)C(=O)N[C@@H](CCCNC(=N)N)C(=O)N[C@H](C(=O)O)[C@@H](C)CC)[C@@H](C)O)[C@@H](C)O,,"C57BL/6J mouse, MCD diet","intraperitoneal, 0.6 nmol/g, 3 weeks, 3 times weekly",,serum ALT,230 ± 32.7 IU/L
CN1CCCNC(=O)c2cccc(c2)C(=O)NCCCN(C)CCCNc2cccc3c2C(=O)c2cccc(c2C3=O)NCCC1,,"SAS xenograft, KSN/Slc nude mice","intraperitoneal, 3 µmol/kg every 2 days ×5",,tumour volume,decreased
CC=C1C(OC2OC(CO)C(O)C(O)C2O)OC=C(C(=O)OC)C1CC(=O)OCC1OC(OCCc2ccc(O)cc2)C(O)C(O)C1O (stereo not shown),item: acetic acid,"tumour-bearing mice, faeces","oral, 109.2 mg/kg daily, 10 days",relative to: untreated tumour group,faecal short-chain fatty acid increase,38.9%
O=C1/C(=C/c2ccc(O)c(O)c2)Oc2c1c(O)cc(O)c2-c1ccc(O)c(O)c1,,"mouse, CCl4-induced liver injury","intragastric, 200 or 100 mg/kg, 10 days pretreatment",,serum LDH level,decreased
CC[C@H]1[C@@H](O)[C@@H]2[C@H](CC[C@]3(C)[C@@H]([C@H](C)CCOS(=O)(=O)[O-])CC[C@@H]23)[C@@]2(C)CC[C@@H](O)C[C@@H]12.[Na+],histology,"ob/ob NASH mouse model, liver","oral, 10 mg/kg once daily, 8 weeks, scale 0 to 3",direction not given,inflammation score,1 ± 0.1
CC(C)(O)c1ccc(N2Cc3c(ccnc3-c3ccc(F)cc3OCC(F)(F)F)C2=O)cc1,item: glucosylceramide,"mouse, cerebral cortex",6 h,significant decrease,minimal effective dose,10 mg/kg
CC(C)c1cnc(-c2cc(Cl)ccc2F)cc1Nc1ccncc1C(=O)NC(CO)CO,,human,250 mg,,PSA decrease,48.9%
COc1ccc2c(c1)c(CC(=O)OCC(=O)c1ccccc1)c(C)n2C(=O)c1ccc(Cl)cc1,hot plate test,BALB/c mice,"100 mg/kg, 60 min",,latency of nociceptive response,15.7 ± 0.35 s
C[N+]1=C(C=CC=CC=C2N(CCCCCC(=O)NCCCC[C@H](NC(=O)[C@@H](CCC(=O)O)NC(=O)[C@@H](CCC(=O)O)NC(=O)[C@@H](CCC(=O)O)NC(=O)CCCCCNC(=O)C3CCC(CNC(=O)CC[C@H](NC(=O)N[C@@H](CCC(=O)O)C(=O)O)C(=O)O)CC3)C(N)=O)c3ccc4ccccc4c3C2(C)C)C(C)(C)c2c1ccc1ccccc21 (stereo partly shown),fluorescence molecular tomography,"mouse, PC3pip tumour xenograft, PC3pip tumour","iv, 1 nmol, 24 h",,probe amount in tumour,50.8 ± 2.6 pmol
CN(C)C(=O)c1ccnc(N2Cc3cn(Cc4ccc(F)cc4F)nc3C2)n1,EAE clinical score,mouse EAE model,"oral, 2.5 mg/kg daily from day 11, 264 h, unit not given",relative to: vehicle,effect size d,-1.69
CSCC[C@H](NC(=O)[C@H](CC(C)C)NC(=O)CNC(=O)[C@H](Cc1ccccc1)NC(=O)[C@H](Cc1ccccc1)NC(=O)[C@H](CCC(N)=O)NC(=O)[C@H](CCC(N)=O)NC(=O)[C@@H]1CCCN1C(=O)[C@H](CCCCN)NC(=O)[C@@H]1CCCN1C(=O)[C@@H](N)CCCNC(=N)N)C(N)=O,,"diabetic mice, hindlimb ischemia","intravenous, 2.5 nmol/kg immediately and at day 6, 28 days",,limb salvage,21.4%
CC[C@H](C)[C@H](NC(=O)[C@H](CC(N)=O)NC(=O)[C@H](CC(N)=O)NC(=O)[C@H](CCCNC(=N)N)NC(=O)[C@H](CC(N)=O)NC(=O)[C@H](CCCNC(=N)N)NC(=O)[C@H](CCCCN)NC(=O)[C@@H](NC(=O)[C@H](CC(N)=O)NC(=O)[C@H](CCSC)NC(=O)[C@H](CC(C)C)NC(=O)[C@H](Cc1c[nH]c2ccccc12)NC(=O)[C@H](CCC(N)=O)NC(=O)[C@@H](NC(=O)[C@H](Cc1ccccc1)NC(=O)[C@H](CC(=O)O)NC(=O)[C@H](CCC(N)=O)NC(=O)[C@H](C)NC(=O)[C@H](CCCNC(=N)N)NC(=O)[C@H](CCCNC(=N)N)NC(=O)[C@H](CO)NC(=O)[C@H](CC(=O)O)NC(=O)[C@H](CC(C)C)NC(=O)[C@H](Cc1ccc(O)cc1)NC(=O)[C@H](CCCCN)NC(=O)[C@H](CO)NC(=O)[C@H](Cc1ccc(O)cc1)NC(=O)[C@H](CC(=O)O)NC(=O)[C@H](CO)NC(=O)[C@@H](NC(=O)[C@H](Cc1ccccc1)NC(=O)[C@@H](NC(=O)CNC(=O)[C@H](CCC(=O)O)NC(=O)[C@@H](CO)NC(=O)[C@@H](N)Cc1c[nH]cn1)[C@@H](C)O)[C@@H](C)O)C(C)C)[C@@H](C)O)C(=O)N[C@@H](C)C(=O)N[C@@H](CSCC(=O)NCCOCCOCCOCCOCCC(=O)O[C@H]1CC[C@@]2(C)C(=CC[C@H]3[C@@H]4CC[C@H]([C@H](C)CCCC(C)C)[C@@]4(C)CC[C@@H]32)C1)C(N)=O,,"diet-induced obese mice, plasma","subcutaneous, 1.9 µmol/kg, 14 days, chronic dosing",,insulin level,7.8 ± 1.1 ng/mL
CC12CC(O)C3CC1(OC1OC(CO)C(O)C(O)C1O)C3(COC(=O)c1ccccc1)C(=O)O2 (stereo not shown),,"mice, reserpine-induced depression","14 mg/kg, 7 days, 4 h after reserpine",,body temperature,35.2 ± 0.51 °C
CC(C)=CCCC(C)=CCc1cc(-c2coc3cc(OC4OC(C(=O)O)C(O)C(O)C4O)ccc3c2=O)ccc1O (stereo not shown),"glucuronidation, substrate",dog liver microsomes,,,Vmax,3050 ± 284 pmol/min/mg
NC[C@@H](C(=O)Nc1ccc(-c2cn[nH]c2)cc1)c1ccccc1,,"NZW rabbit, magnetic bead ocular hypertension","topical, 0.1 %, 30 h",relative to: baseline,maximum IOP reduction,8 ± 1.6 mm Hg
COC(=O)C1OC(Oc2c(-c3ccccc3)oc3cc(O)c(O)c(O)c3c2=O)C(O)C(O)C1O (stereo not shown),"ELISA, item: IL-1β","Balb/c mouse, serum","oral, 5 mg/kg, added: LPS",,serum concentration,90.6 pg/mL
N=C(N)NCCC[C@@H]1NC(=O)[C@H](CCCNC(=N)N)NC(=O)[C@H](CCCNC(=N)N)NC(=O)[C@H](Cc2ccc3ccccc3c2)NC(=O)[C@H](Cc2c[nH]c3ccccc23)NC(=O)[C@H](Cc2ccc3ccccc3c2)NC(=O)[C@H](CCCNC(=N)N)NC1=O,,mammalian-mimic liposomes,"concentration not given, 100 min",,calcein leakage,20.2%
CC1SC(N/N=C2\c3ccccc3-c3nc4cc(F)ccc4nc32)=NC1=O (stereo not shown),,"mouse, STZ-induced diabetes","oral, 25 mg/kg, day 3",,blood glucose,322 ± 24.7 mg/dL
CC(=O)[O-].O.O.O.O.[Mn+2].[O-]c1ccc(Br)cc1C=NCCN1CCOCC1,FRAP,,240 µM,,ferric reducing power,55.5%
CCCCCCCCCCCCCCCC(=O)N[C@@H](CCC(=O)NCCCC[C@H](NC(=O)[C@H](CC(=O)O)NC(=O)[C@H](CO)NC(=O)[C@@H](NC(=O)[C@H](Cc1ccccc1)NC(=O)[C@@H](NC(=O)CNC(=O)[C@H](CCC(N)=O)NC(=O)[C@H](CO)NC(=O)[C@@H](N)Cc1c[nH]cn1)[C@@H](C)O)[C@@H](C)O)C(=O)N[C@@H](CO)C(=O)N[C@@H](CCC(=O)O)C(=O)N[C@@H](Cc1ccc(O)cc1)C(=O)N[C@@H](CC(C)C)C(=O)N[C@@H](CC(=O)O)C(=O)N[C@@H](CO)C(=O)N[C@@H](CCC(=O)O)C(=O)N[C@@H](CCCNC(=N)N)C(=O)N[C@@H](C)C(=O)N[C@@H](CCCNC(=N)N)C(=O)N[C@@H](CC(=O)O)C(=O)N[C@@H](Cc1ccccc1)C(=O)N[C@H](C(=O)N[C@@H](C)C(=O)N[C@@H](Cc1c[nH]c2ccccc12)C(=O)N[C@@H](CC(C)C)C(=O)N[C@@H](CCC(=O)O)C(=O)N[C@@H](C)C(=O)NCC(=O)NCC(=O)O)C(C)C)C(=O)O,,diet-induced obese mouse,"subcutaneous, 10 nmol/kg single dose, 0-12 h",relative to: vehicle,food intake,~31%
COc1ccc(-c2nnc(COc3cc(-c4nc5ccccc5s4)ccc3OC)o2)cc1OC,seizure protection,"albino mouse, scPTZ-induced seizure","ip, 4.0 h",,minimal effective dose,30 mg/kg
Cc1cc([C@H](C(=O)N2C[C@H](O)C[C@H]2C(=O)N[C@@H](CC(=O)N2CCC(N3CCC(C#Cc4ccc(C(=O)N[C@H]5C(C)(C)[C@H](Oc6ccc(C#N)c(Cl)c6)C5(C)C)cc4)CC3)CC2)c2ccc(-c3scnc3C)cc2)C(C)C)on1,,"mouse MDA-MB-453 xenograft, tumour","ip, 25 mg/kg single dose, 24 h",,c-Myc mRNA level,decreased
C=C(c1cc(F)c(C(=O)O)c(F)c1)c1cc2c(cc1C)C(C)(C)CCC2(C)C,"RNA sequencing, item: Angptl4 mRNA","rat, brain","dose not given, 24 h, single dose",relative to: vehicle,log2 fold change,0.28
COc1c2c(cc3oc(C)cc(=O)c13)O[C@H](C(C)(C)O[C@@H]1O[C@H](CO)[C@@H](O)[C@H](O)[C@H]1O)C2,analgesia,mouse,"oral, 1 mg/kg, 0.5 h",,hot plate latency,9.25 ± 1.56 s
O=[N+]([O-])c1cccc(S(=O)(=O)NC[C@@H](O)[C@@H]2CCc3cc(F)ccc3O2)c1,,"rat, cotton pellet granuloma","oral, 100 mg/kg, 8 days",,dry granuloma weight,78.4 ± 2.04 mg
CN(C)S(=O)(=O)c1cc(C(=O)O)ccc1NCCCCCCCC(F)(F)F,,"hippocampal neurons 3 DIV, mouse","10 µM, added: GABA 100 µM",relative to: DMSO,Ca2+ influx,decreased
Cc1nc(C)c(C=[N+]([O-])C(C)(C)C)nc1C,"western blot, item: tyrosine hydroxylase","mouse MPTP model, substantia nigra",30 mg/kg,increase,protein level,28.1%
CC(=O)N[C@@H](CC(N)=O)C(=O)NCC(=O)N[C@@H](C)C(=O)N[C@@H](C)C(N)=O,1H NMR,sodium phosphate buffer 50 mM,"pH 7.4, 37 °C",,rate constant succinimide to β-Asp,0.714 h⁻¹
O=C(O)C1OC(Oc2cccc(-c3nc(N4CCOCC4)c4oc5ncccc5c4n3)c2)C(O)C(O)C1O (stereo not shown),glucuronide formation,human intestinal microsomes,,,Vmax,371 ± 12.3 pmol/min/mg
CCCCCCCCCn1cc(C(N)(CO)CO)nn1,,"APP/PS1 mouse, dentate gyrus",dose not given,relative to: PBS,proliferating neural progenitors,increased
Cc1cc(O)c(C=O)c2c1C(=O)Oc1c(CO)c(O)c3c(c1O2)C(O)OC3=O (stereo not shown),,"streptozotocin-induced diabetic male rats, plasma","10 mg/kg, 9 weeks",,fasting plasma glucose,141 ± 7.9 mg/dL
C=C(c1ccc(C(=O)O)c(F)c1)c1cc2c(cc1C)C(C)(C)C=CC2(C)C,"RNA sequencing, item: Nmb","rat, brain","dose not given, 24 h",relative to: vehicle,log2 fold change,-1
CC(=O)C1=C(C)NC(=O)NC1c1ccc(C)cc1 (stereo not shown),FRAP,,,relative to: gallic acid,antioxidant potency ratio,~2.9 fold
COc1ccc(C2CC(c3ccc(C)cc3)=Nc3ccccc3S2)cc1OC (stereo not shown),,"Wistar rat, STZ-induced diabetes","oral, 20 mg/kg once daily, day 7",,blood glucose,225 mg/dL
C[C@H](NC(=O)CCCCCNC(=S)Nc1ccc2c(c1)C(=O)OC21c2ccc(O)cc2Oc2cc(O)ccc21)C(=O)N[C@@H](C)C(=O)N1CCC[C@H]1C(=O)N[C@@H](CCC(=O)O)C(=O)N1CCC[C@H]1C(=O)N[C@@H](CCC(=O)O)C(=O)N[C@H](C(=O)NCC(=O)N[C@@H](CCC(=O)O)C(=O)O)[C@@H](C)O,cytometric bead array,"C57BL/6J mouse, hepatic ischaemia-reperfusion, serum","intravenous, 10 mg/kg",relative to: vehicle,serum inflammatory cytokine levels,decreased

# Some of these lines once more:
SMILES,assay,test system,conditions,how to read,endpoint,result
COC(=O)C1OC(Oc2c(-c3ccccc3)oc3cc(O)c(O)c(O)c3c2=O)C(O)C(O)C1O (stereo not shown),"ELISA, item: IL-1β","Balb/c mouse, serum","oral, 5 mg/kg, added: LPS",,serum concentration,90.6 pg/mL
N=C(N)NCCC[C@@H]1NC(=O)[C@H](CCCNC(=N)N)NC(=O)[C@H](CCCNC(=N)N)NC(=O)[C@H](Cc2ccc3ccccc3c2)NC(=O)[C@H](Cc2c[nH]c3ccccc23)NC(=O)[C@H](Cc2ccc3ccccc3c2)NC(=O)[C@H](CCCNC(=N)N)NC1=O,,mammalian-mimic liposomes,"concentration not given, 100 min",,calcein leakage,20.2%
CC1SC(N/N=C2\c3ccccc3-c3nc4cc(F)ccc4nc32)=NC1=O (stereo not shown),,"mouse, STZ-induced diabetes","oral, 25 mg/kg, day 3",,blood glucose,322 ± 24.7 mg/dL
CC(=O)[O-].O.O.O.O.[Mn+2].[O-]c1ccc(Br)cc1C=NCCN1CCOCC1,FRAP,,240 µM,,ferric reducing power,55.5%
